Measurements of several laboratories.
Protocols differ between the studies behind these lines. Numbers after ± are the reported error.

SMILES | target or system | test | system | conditions | quantity | value
COc1cccc2c1C(=O)c1c(O)c3c(c(O)c1C2=O)C[C@@](O)(C(=O)CO)C[C@@H]3O[C@H]1C[C@H](NC(=O)[C@@H]2CCCN2C(=O)CN)[C@H](O)[C@H](C)O1 |  |  | healthy mouse, plasma | intravenous, 94.4 mg/kg PhAc-ALGP-Dox | Cmax | 2830 ± 360 nM
O=C(O)CC[C@H](NC(=O)N[C@@H](CCCCNC(=O)[C@H](Cc1ccc2ccccc2c1)NC(=O)CCCCCNC(=O)CN1CCN(CC(=O)O)CCN(CC(=O)O)CCN(CC(=O)O)CC1)C(=O)O)C(=O)O [gallium-68 labelled] |  | PET/CT SUVmean | mice with 22Rv1 xenograft | intravenous, 3.7 MBq, 1 h | tumour to non-tumour ratio | 4.44 ± 0.34
CC(C)C[C@H](NC(=O)C[C@H](O)[C@H](CC(C)C)NC(=O)[C@H](Cc1c[nH]cn1)NC(=O)CNC(=O)[C@@H](NC(=O)[C@H](C)NC(=O)[C@H](Cc1c[nH]c2ccccc12)NC(=O)[C@H](CCC(N)=O)NC(=O)[C@@H](Cc1ccccc1)NC(=O)COCCOCCNC(=O)CCC(C(=O)O)N1CCN(CC(=O)O)CCN(CC(=O)O)CCN(CC(=O)O)CC1)C(C)C)C(N)=O (some centres unmarked) [lutetium-177 labelled] |  |  | female BALB/c nu/nu mice, spleen | intravenous, 100 pmol, 4 h, together with: PA 300 µg | tissue uptake | 0.09 ± 0.02 %ID/g
N=C(N)NCCC[C@@H](NC(=O)CCOCCOCCNC(=O)[C@H](CCCCNC(=O)CC[C@H](NC(=O)c1ccc(NCc2cnc3nc(N)[nH]c(=O)c3n2)cc1)C(=O)O)NC(=O)CO/N=C/[C@H](F)[C@@H](O)[C@H](O)[C@H](O)CO)C(=O)NCC(=O)N[C@H](CC(=O)O)C(N)=O [fluorine-18 labelled] |  |  | female nude mice, MDA-MB-231 xenograft, liver and intestine |  | hepatobiliary clearance | < 5 % ID
CC(C)[C@H](NC(=O)[C@H](Cc1ccc(O)cc1)NC(=O)[C@H](Cc1ccc(O)cc1)NC(=O)[C@@H]1CCCN1C(=O)[C@H](CCC(=O)O)NC(=O)[C@H](CCC(=O)O)NC(=O)[C@H](Cc1c[nH]c2ccccc12)NC(=O)[C@@H]1CCCN1C(=O)[C@@H](NC(=O)[C@H](CCC(N)=O)NC(=O)c1ccc2c(c1)C(=O)OC21c2ccc(O)cc2Oc2cc(O)ccc21)C(C)C)C(=O)N[C@H](C(=O)N[C@@H](CCCCN)C(=O)N[C@@H](CCCCN)C(=O)N[C@@H](CO)C(=O)N[C@@H](CO)C(=O)NCC(=O)NCC(N)=O)C(C)C |  |  | human, plasma | intravenous infusion, 200 mg, predose, day 1 | plasma concentration | not detected
C[C@@H](O)[C@@H](CO)NC(=O)[C@@H](CCCNC(=N)N)NC(=O)[C@@H]1CCCN1C(=O)[C@@H]1CSSC[C@H](NC(=O)[C@H](Cc2ccccc2)NC(=O)CN2CCN(CC(=O)O)CCN(CC(=O)O)CCN(CC(=O)O)CC2)C(=O)N[C@@H](Cc2ccc(O)cc2)C(=O)N[C@@H](Cc2ccccc2)C(=O)N[C@@H](CCC(N)=O)C(=O)N[C@@H](CC(N)=O)C(=O)N1 [gallium-68 labelled] |  |  | PBS | 1 h, 37 °C | radiochemical purity | > 99%
CC(/C=C/C(=O)NO)=C\[C@@H](C)C(=O)c1ccc(N(C)C)cc1 | HBL-1 |  |  | 0.1 µM, 120 h | viability | 80.5%
CC(C)C[C@H](NC(=O)C[C@H](O)[C@H](CC(C)C)NC(=O)[C@H](Cc1c[nH]cn1)NC(=O)CNC(=O)[C@@H](NC(=O)[C@H](C)NC(=O)[C@H](Cc1c[nH]c2ccccc12)NC(=O)[C@H](CCC(N)=O)NC(=O)[C@@H](Cc1ccccc1)NC(=O)COCCOCCNC(=O)CN1CCN(CC(=O)O)CCN(CC(=O)O)CCN(CC(=O)O)CC1)C(C)C)C(N)=O [lutetium-177 labelled] |  |  | female BALB/c nu/nu mice, pancreas | intravenous, 50 pmol, 1 h | tissue uptake | 5 ± 1 %ID/g
CC(C)=NNc1ccc(C(=O)N[C@H]2CSSC[C@@H](C(=O)O)NC(=O)[C@H](Cc3c[nH]cn3)NC(=O)[C@H](CO)NC(=O)[C@H](Cc3ccccc3)NC(=O)[C@@H]3CCCN3C(=O)[C@H](CO)NC(=O)[C@@H]3CCCN3C(=O)[C@H]([C@@H](C)O)NC2=O)cn1 |  | analytical HPLC |  | acetone hydrazone-protected conjugate | HPLC retention time | 24.6 min
COc1cccc2c1C(=O)c1c(O)c3c(c(O)c1C2=O)C[C@@](O)(C(=O)CO)C[C@@H]3O[C@H]1C[C@H](NC(=O)[C@@H]2CCCN2C(=O)CNC(=O)[C@@H](N)CC(C)C)[C@H](O)[C@H](C)O1 |  |  | healthy mouse, plasma | intravenous, 23.6 mg/kg PhAc-ALGP-Dox | Cmax | 69 ± 30 nM
CCOC(=O)NCCCC(=O)NCCc1ccccc1 | HBL-1 |  |  | 0.5 µM, 120 h | viability | 130%
